# Experimental data from different studies.
# A part holds a random share of what one study measured. Substitutions count along the parent as printed.
# Sequence of UniProt Q99640 (whole entry, looked up): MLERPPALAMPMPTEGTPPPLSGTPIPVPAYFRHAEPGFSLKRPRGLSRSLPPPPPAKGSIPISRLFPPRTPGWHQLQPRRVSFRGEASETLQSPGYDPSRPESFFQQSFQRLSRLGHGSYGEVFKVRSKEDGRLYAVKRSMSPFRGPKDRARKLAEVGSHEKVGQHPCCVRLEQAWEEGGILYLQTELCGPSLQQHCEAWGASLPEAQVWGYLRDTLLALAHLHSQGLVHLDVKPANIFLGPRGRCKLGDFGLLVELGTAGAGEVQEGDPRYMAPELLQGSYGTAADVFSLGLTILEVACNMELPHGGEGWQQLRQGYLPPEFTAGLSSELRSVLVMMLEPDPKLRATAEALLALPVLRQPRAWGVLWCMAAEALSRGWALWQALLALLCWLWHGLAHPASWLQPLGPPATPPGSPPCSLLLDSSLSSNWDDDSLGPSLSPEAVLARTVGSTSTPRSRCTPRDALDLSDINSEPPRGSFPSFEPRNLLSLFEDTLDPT
# Sequence of UniProt Q8N752 (whole entry, looked up): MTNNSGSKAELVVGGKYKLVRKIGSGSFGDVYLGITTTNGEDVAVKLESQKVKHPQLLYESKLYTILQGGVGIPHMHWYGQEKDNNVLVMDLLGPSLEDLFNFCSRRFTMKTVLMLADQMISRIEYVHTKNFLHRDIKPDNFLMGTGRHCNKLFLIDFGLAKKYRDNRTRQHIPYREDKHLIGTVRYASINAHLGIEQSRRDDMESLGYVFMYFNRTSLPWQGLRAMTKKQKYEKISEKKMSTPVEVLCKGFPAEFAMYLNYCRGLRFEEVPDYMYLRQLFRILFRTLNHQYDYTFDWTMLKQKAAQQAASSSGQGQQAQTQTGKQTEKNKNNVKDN
# Sequence of UniProt Q9HC98 (whole entry, looked up): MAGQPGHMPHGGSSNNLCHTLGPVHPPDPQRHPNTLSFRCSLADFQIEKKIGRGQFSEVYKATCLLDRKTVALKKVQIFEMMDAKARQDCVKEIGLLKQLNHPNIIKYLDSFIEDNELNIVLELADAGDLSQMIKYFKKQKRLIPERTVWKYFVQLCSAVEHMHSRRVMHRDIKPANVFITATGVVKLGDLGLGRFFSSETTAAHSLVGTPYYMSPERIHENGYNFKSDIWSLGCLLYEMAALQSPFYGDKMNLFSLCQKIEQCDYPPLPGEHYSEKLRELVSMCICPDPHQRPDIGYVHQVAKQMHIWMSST
# Sequence of UniProt O75460 (whole entry, looked up): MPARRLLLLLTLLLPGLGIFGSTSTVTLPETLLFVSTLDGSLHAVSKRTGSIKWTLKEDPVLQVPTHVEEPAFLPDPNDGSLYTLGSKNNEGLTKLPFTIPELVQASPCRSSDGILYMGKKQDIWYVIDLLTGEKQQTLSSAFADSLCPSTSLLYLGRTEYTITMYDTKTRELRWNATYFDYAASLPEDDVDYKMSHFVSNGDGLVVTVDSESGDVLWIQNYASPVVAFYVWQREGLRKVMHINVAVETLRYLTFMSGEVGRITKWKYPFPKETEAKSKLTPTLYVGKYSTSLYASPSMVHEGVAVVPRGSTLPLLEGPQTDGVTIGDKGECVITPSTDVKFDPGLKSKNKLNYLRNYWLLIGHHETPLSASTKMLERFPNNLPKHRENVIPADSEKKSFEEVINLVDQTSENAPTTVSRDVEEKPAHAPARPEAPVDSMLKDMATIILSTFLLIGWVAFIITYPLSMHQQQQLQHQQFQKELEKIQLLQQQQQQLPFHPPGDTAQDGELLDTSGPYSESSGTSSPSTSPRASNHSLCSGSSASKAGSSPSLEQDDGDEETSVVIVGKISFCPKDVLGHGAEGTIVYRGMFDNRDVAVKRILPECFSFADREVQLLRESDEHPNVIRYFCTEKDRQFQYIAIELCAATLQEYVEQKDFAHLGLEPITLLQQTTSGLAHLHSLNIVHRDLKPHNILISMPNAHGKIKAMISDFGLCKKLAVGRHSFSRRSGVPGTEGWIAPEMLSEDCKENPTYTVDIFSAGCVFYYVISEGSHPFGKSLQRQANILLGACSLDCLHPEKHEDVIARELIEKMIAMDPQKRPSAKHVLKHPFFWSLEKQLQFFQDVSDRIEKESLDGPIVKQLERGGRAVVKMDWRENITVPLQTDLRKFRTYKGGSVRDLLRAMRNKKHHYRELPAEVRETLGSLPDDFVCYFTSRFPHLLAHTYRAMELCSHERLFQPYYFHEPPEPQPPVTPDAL
# Sequence of UniProt P42336 (whole entry, unmodified, looked up): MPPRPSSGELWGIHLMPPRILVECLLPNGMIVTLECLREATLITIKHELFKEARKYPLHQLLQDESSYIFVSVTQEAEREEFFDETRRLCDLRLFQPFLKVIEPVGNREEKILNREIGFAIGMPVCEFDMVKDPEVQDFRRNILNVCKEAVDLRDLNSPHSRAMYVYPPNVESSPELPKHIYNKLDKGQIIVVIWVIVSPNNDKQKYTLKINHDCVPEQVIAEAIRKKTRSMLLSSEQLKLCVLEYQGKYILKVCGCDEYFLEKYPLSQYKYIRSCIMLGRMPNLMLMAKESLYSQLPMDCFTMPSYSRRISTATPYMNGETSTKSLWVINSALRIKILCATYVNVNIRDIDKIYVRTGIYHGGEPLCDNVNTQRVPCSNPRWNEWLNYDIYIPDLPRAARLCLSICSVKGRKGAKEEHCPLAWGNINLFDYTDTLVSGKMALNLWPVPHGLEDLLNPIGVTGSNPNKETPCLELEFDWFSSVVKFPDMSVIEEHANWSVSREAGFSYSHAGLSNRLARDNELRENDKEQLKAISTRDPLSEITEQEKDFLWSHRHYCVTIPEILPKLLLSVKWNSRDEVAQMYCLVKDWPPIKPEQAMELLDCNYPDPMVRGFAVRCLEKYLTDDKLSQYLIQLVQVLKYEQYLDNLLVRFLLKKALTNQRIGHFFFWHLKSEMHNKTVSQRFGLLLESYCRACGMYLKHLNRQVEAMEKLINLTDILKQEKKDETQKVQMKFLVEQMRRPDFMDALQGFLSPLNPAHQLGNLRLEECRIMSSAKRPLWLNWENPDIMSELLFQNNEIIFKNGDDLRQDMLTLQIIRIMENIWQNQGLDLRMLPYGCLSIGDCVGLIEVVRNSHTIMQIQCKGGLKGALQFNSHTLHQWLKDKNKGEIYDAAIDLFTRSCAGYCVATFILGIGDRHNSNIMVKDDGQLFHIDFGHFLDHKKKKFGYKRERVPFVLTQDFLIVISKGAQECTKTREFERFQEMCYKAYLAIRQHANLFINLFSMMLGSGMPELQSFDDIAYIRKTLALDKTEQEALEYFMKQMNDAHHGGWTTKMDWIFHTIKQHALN

# Series 1
# Target: Histone acetyltransferase KAT6A, winged helix 1, GST fusion (KAT6A, Homo sapiens, UniProt Q92794, residues 1-85)
# Method: protein binding microarray
# Molecule type: double-stranded DNA, one strand shown
# Matrix: in vitro
# Concentration: not given
# Notes: 8-mer, flanks averaged, mean of 2 arrays, mostly near background
# Baseline: not given
# Reading: higher = stronger binding
# Construct (chain): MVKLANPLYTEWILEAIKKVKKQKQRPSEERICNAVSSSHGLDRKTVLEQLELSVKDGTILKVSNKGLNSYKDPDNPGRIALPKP
Oligonucleotide,E-score
GTCAACCA,-0.189
ACAATCAC,-0.112
ACTGCGAT,-0.0165
GACGCGGC,0.382
GACTCATC,-0.0272
ACGAACAC,-0.0628
AACCTCTG,-0.107
GGACTGGA,-0.215

# Series 2
# SMILES: Cn1nc(C(=O)NCc2ccc(C(=O)O)cc2)cc1-c1ccc2[nH]ccc2c1
# Read-out: cell-free assay
# Method: competition with immobilised ligand
# Concentration: 0.1 µM
target,remaining binding
"RPS6KB1 (Homo sapiens, UniProt P23443)",91%
"EGFR (Homo sapiens, UniProt P00533, A750P/del747-749)",92%
"Tyrosine-protein kinase ABL1, phosphorylated (ABL1, Homo sapiens, UniProt P00519)",62%
"ERN1 (Homo sapiens, UniProt O75460)",83%
"Tyrosine-protein kinase ABL1, non-phosphorylated (ABL1, Homo sapiens, UniProt P00519, Q252H)",71%
"PIK3CA (Homo sapiens, UniProt P42336, C420R)",84%
"RIOK2 (Homo sapiens, UniProt Q9BVS4)",100%
"EGFR (Homo sapiens, UniProt P00533, G719C)",76%
"CAMK2G (Homo sapiens, UniProt Q13555)",83%
"EGFR (Homo sapiens, UniProt P00533, G719S)",66%
"Ribosomal protein S6 kinase alpha-3, C-terminal kinase domain (RPS6KA3, Homo sapiens, UniProt P51812)",70%
"FLT3 (Homo sapiens, UniProt P36888)",86%
"MAPK9 (Homo sapiens, UniProt P45984)",60%
"CSNK1A1L (Homo sapiens, UniProt Q8N752)",94%
"LRRK2 (Homo sapiens, UniProt Q5S007)",75%
"TESK1 (Homo sapiens, UniProt Q15569)",92%
"Receptor-type tyrosine-protein kinase FLT3, autoinhibited (FLT3, Homo sapiens, UniProt P36888)",95%
"STK11 (Homo sapiens, UniProt Q15831)",100%
"PKMYT1 (Homo sapiens, UniProt Q99640)",93%
"PIKFYVE (Homo sapiens, UniProt Q9Y2I7)",100%
"NEK6 (Homo sapiens, UniProt Q9HC98)",91%
"CDK16 (Homo sapiens, UniProt Q00536)",93%

# Series 3
# Target: CCND2, cyclin fold, Cln2 fusion (human)
# Method: yeast growth competition, sequencing
# Matrix: yeast
# Notes: weak parent motif
# Baseline: not given
# Reading: higher = stronger binding
# Starting sequence: HIRA docking peptide (human); SLSKRKLELEVET
Substitution,normalised enrichment score
ALSKRKLELEVET [S1A],0.455
SLSKRKLELEAET [V11A],-0.0301
SLSKRKLALEVET [E8A],0.403
SLSKAKAELEVET [R5A L7A],0.228
SLSKKKLELEVET [R5K],0.43
SASKRKLELEVET [L2A],-0.0873
SLSKRKLELEVAT [E12A],-0.185
SLSKRKLELEVEA [T13A],0.365

# Series 4
# Target: Serine/threonine-protein kinase Nek3 (NEK3, Homo sapiens, UniProt P51956)
# Sequence of UniProt P51956 (whole entry, looked up): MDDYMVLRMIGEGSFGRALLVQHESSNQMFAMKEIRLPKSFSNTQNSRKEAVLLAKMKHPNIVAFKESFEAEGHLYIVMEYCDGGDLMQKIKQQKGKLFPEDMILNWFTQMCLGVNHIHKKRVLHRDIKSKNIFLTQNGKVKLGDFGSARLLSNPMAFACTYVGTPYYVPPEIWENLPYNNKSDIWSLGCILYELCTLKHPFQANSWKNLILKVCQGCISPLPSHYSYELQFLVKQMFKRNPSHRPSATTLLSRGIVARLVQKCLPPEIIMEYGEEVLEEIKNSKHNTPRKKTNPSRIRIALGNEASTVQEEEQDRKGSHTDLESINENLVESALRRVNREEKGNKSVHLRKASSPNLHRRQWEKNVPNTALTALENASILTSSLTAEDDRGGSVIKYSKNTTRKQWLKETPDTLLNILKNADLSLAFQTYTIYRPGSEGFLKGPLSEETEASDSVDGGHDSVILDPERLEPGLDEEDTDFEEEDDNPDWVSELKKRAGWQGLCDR
# Read-out: enzyme activity
# Action: inhibitor
# Concentration: 0.5 µM
# Baseline: control
Compound,remaining activity
Cc1cccc(-c2[nH]c(C(C)(C)C)nc2-c2ccc3c(c2)OCO3)n1,85.6%
COc1cc2ncnc(Nc3ccc(Oc4ccccc4)cc3)c2cc1OC,98.4%
O=C1NC(=O)C(c2cn(CCCn3ccnc3)c3ccccc23)=C1Nc1ccccc1,99.5%
Cn1c2ccccc2c2c3c(c4c5ccccc5n(CCC#N)c4c21)CNC3=O,133%
COc1ccc(CNC(=O)Nc2ncc([N+](=O)[O-])s2)cc1,78.6%
CN(C)c1ccc(C=C2C(=O)Nc3ccccc32)cc1,95.2%
Oc1ccc(-c2nc(-c3ccncc3)c(-c3ccc(F)cc3)[nH]2)cc1,99.3%
COc1cc2ncnc(Nc3ccc(F)c(Cl)c3)c2cc1OCCCN1CCOCC1,94.4%
O=C(Nc1cccc(Nc2cc(Nc3cccc(C(F)(F)F)c3)ncn2)c1)C1CC1,94.4%
Nc1ncnc2n[nH]c(Nc3ccc(F)cc3)c12,102%
Cc1ccc(NC(=O)c2ccc(CN3CCN(C)CC3)cc2)cc1Nc1nc(-c2cccnc2)cs1,99.3%
COc1ccc(OC)c2c(=S)c3ccccc3[nH]c12,107%
Cc1nc(-c2ccccc2)c(-c2ccncc2)o1,93.7%
C#Cc1cccc(Nc2ncnc3cc(OCCOC)c(OCCOC)cc23)c1,95.6%
N#CC(C#N)=C(N)/C(C#N)=C/c1ccc(O)cc1,98%
O=C1NC(=O)C(c2cn(CCCO)c3ncccc23)=C1c1cnccn1,97.5%
COc1cc2nccc(Oc3ccc(NC(=S)NC(=O)c4ccccc4C)cc3)c2cc1OC,99.6%
Nc1[nH]nc2nc3ccccc3nc12,94.9%
CO[C@H]1C[C@@H]2CC[C@@H](C)[C@@](O)(O2)C(=O)C(=O)N2CCCC[C@H]2C(=O)O[C@H]([C@H](C)C[C@@H]2CC[C@@H](O)[C@H](OC)C2)CC(=O)[C@H](C)/C=C(\C)[C@@H](O)[C@@H](OC)C(=O)[C@H](C)C[C@H](C)/C=C/C=C/C=C/1C,99%
O=C(O)c1ccc2c3c1cccc3c(=O)n1c3ccccc3nc21,91.8%
CC(C)[C@H](CO)Nc1nc(Nc2cc(N)cc(Cl)c2)c2ncn(C(C)C)c2n1,100%
NCCNc1ncc(C(N)=O)c(Nc2cccc(C(F)(F)F)c2)n1,93.3%
OCC(O)CCON=C1C(c2c(O)[nH]c3ccccc23)=Nc2ccccc21 (centres unmarked),102%
CCOC(=O)c1c(C)[nH]c(/C=C2\C(=O)Nc3ccccc32)c1C,101%
